Assay results of several laboratories.
Numbers after ± are the reported error.
rep main protease: Replicase polyprotein 1ab, main protease (rep, Severe acute respiratory syndrome coronavirus 2, UniProt P0DTD1)
Spike glycoprotein: Spike glycoprotein (Severe acute respiratory syndrome coronavirus 2, UniProt P0DTC2)

Molecule | target or system | assay | test system | setting | how to read | endpoint | result
C[C@H](NC(=O)C(=O)Nc1ccccc1C(C)(C)C)C(=O)N[C@@H](CC(=O)O)C(=O)COc1c(F)c(F)cc(F)c1F | rep main protease | reporter gene (Gaussia luciferase), inhibitor |  | 20 µM |  | inhibition | 0.108%
CCOP(=O)(OCC)Oc1ccc([N+](=O)[O-])cc1 | THP-1 macrophages | 2-AG and PG-G hydrolysis |  | concentration not given, 1 h, together with: 2-AG or PG-G 10 µM |  | inhibition | 60 to 80%
Nc1ncnc2c([C@@H]3N[C@H](CO)[C@@H](O)[C@H]3O)c[nH]c12 | Marburg virus | viral replication | HeLa, Angola | 400 µM |  | inhibition | 99.7%
CN(C)CCCN1c2ccccc2Sc2ccc(Cl)cc21 | A2780cis, cisplatin-resistant | cell viability, neutral red uptake |  | together with: UVA 5 J/cm2 |  | IC50 | 4900 nM
CC[C@@]1(O)C(=O)OCc2c1cc1n(c2=O)Cc2c-1nc1cc(F)c(C)c3c1c2[C@@H](NC(=O)CO)CC3 | PBMC | cytotoxicity |  |  |  | IC50 | 25.6 nM
QPYRVVVLSFELLHA | human CD4 T cells | AIM | peptide |  |  | responding donors | 7%
Cn1cnc(Cn2c(=O)[nH]/c(=N\c3cc4cn(C)nc4cc3Cl)n(Cc3cc(F)c(F)cc3F)c2=O)n1 |  |  | human, severe renal impairment | oral, 375 mg, decreased GFR TEAE, mild severity |  | patients with adverse event | 0%
O=C1CCC(N2C(=O)c3cccc4c(Cc5cnn(C6CCN(C(=O)C7(O)CCC7)CC6)c5)ccc2c34)C(=O)N1 (stereo not drawn) | NCI-H929 | cell proliferation |  | 72 h |  | IC50 | 0.007 nM
CC[C@H](C)[C@H](NC(=O)[C@H](CC(C)C)NC(=O)[C@H](Cc1c[nH]c2ccccc12)NC(=O)[C@H](CCC(N)=O)NC(=O)[C@@H](NC(=O)[C@H](Cc1ccccc1)NC(=O)[C@H](C)NC(=O)[C@H](CCCCNC(=O)COCCOCCNC(=O)COCCOCCNC(=O)CC[C@H](NC(=O)CCCCCCCCCCCCCCCCCCC(=O)O)C(=O)O)NC(=O)[C@H](CCC(N)=O)NC(=O)[C@H](C)NC(=O)[C@@H](NC(=O)[C@H](CCCCN)NC(=O)[C@H](CC(=O)O)NC(=O)[C@H](CC(C)C)NC(=O)C(C)(C)NC(=O)[C@@H](NC(=O)[C@H](CO)NC(=O)[C@H](Cc1ccc(O)cc1)NC(=O)[C@H](CC(=O)O)NC(=O)[C@H](CO)NC(=O)[C@@H](NC(=O)[C@H](Cc1ccccc1)NC(=O)[C@@H](NC(=O)CNC(=O)[C@H](CCC(=O)O)NC(=O)C(C)(C)NC(=O)[C@@H](N)Cc1ccc(O)cc1)[C@@H](C)O)[C@@H](C)O)[C@@H](C)CC)[C@@H](C)CC)C(C)C)C(=O)N[C@@H](C)C(=O)NCC(=O)NCC(=O)N1CCC[C@H]1C(=O)N[C@@H](CO)C(=O)N[C@@H](CO)C(=O)NCC(=O)N[C@@H](C)C(=O)N1CCC[C@H]1C(=O)N1CCC[C@H]1C(=O)N1CCC[C@H]1C(=O)N[C@@H](CO)C(N)=O |  | item: treatment-emergent feeling hot | healthy subjects | 0.5 mg, multiple ascending dose |  | subjects with adverse event | 0%
LYENQKLIANQFNSA | human CD4 T cells | AIM | peptide |  |  | responding donors | 7%
CCOC(=O)CC(SP(=S)(OC)OC)C(=O)OCC (stereo not drawn) | ES-D3 | cardiomyocyte differentiation, embryonic stem cell test |  | day 10, exposure from day 3 | 50% inhibition of beating | ID50 | 73200 nM
CC(C)C[C@H](NC(=O)[C@H](CC(=O)O)NC(=O)CNC(=O)[C@H](CCCNC(=N)N)NC(=O)[C@H](CC(C)C)NC(=O)[C@H](CC(N)=O)NC(=O)[C@@H]1CCCN1C(=O)[C@@H](NC(=O)[C@H](C)NC(=O)[C@H](CC(N)=O)NC(=O)c1ccc(F)cc1)C(C)C)C(=O)N[C@@H](CCC(N)=O)C(=O)N[C@H](C(=O)N[C@@H](CC(C)C)C(=O)N[C@@H](C)C(=O)N[C@@H](CCC(N)=O)C(=O)N[C@@H](CCCCN)C(=O)N[C@H](C(=O)N[C@@H](C)C(=O)N[C@@H](CCCNC(=N)N)C(=O)N[C@H](C(N)=O)[C@@H](C)O)C(C)C)C(C)C [fluorine-18 labelled] | BxPC-3 |  |  | concentration not given, 1 h, pH 7.2, serum-free medium |  | cell-bound radioactivity | 9.7 ± 1.2%
O=C1CCC(N2C(=O)c3cccc4c(Cc5cnn(C6CCNCC6)c5)ccc2c34)C(=O)N1 (stereo not drawn) | NCI-H929 | cell proliferation |  | 72 h |  | IC50 | 0.467 nM
CC(C)=CCC/C(C)=C/CC/C(C)=C/CC/C(C)=C/CC1=C(C)C(=O)c2ccccc2C1=O | Spike glycoprotein | binding, BLI |  |  |  | Kd | 87400 nM
VYYPDKVFRSSVLHS | human CD4 T cells | AIM | peptide |  |  | responding donors | 15%
CC[C@H](C)[C@@H]([C@@H](CC(=O)N1CCC[C@H]1[C@H](OC)[C@@H](C)C(=O)N[C@H](C)[C@@H](O)c1ccccc1)OC)N(C)C(=O)[C@@H](NC(=O)[C@@H](NC)C(C)C)C(C)C | PBMC | cytotoxicity |  |  |  | IC50 | 98.2 nM
COC(=O)C[C@H](NC(=O)[C@H](C)NC(=O)[C@@H](NC(=O)OCc1ccccc1)C(C)C)C(=O)CF | rep main protease | reporter gene (Gaussia luciferase), inhibitor |  | 20 µM |  | inhibition | 4.43%

Molecule | target or system | assay | test system | setting | how to read | endpoint | result
QYGDCLGDIAARDLI | human CD4 T cells | AIM | peptide |  |  | responding donors | 8%
COC(=O)Nc1nc2ccc(C(=O)c3cccs3)cc2[nH]1 | HEK293T | reporter gene, firefly luciferase |  | 24 h, together with: Marburg VP24 |  | IC50 | < 5000 nM
C[C@@H]1O[C@@H](O[C@H]2CC[C@]3(C=O)[C@H]4CC[C@]5(C)[C@@H](C6=CC(=O)OC6)CC[C@]5(O)[C@@H]4CC[C@]3(O)C2)[C@H](O)[C@H](O)[C@H]1O | human iPSC cardiomyocytes | plate-normalised |  | concentration not given, hit retest | reference: vehicle controls, SDs below control | MyBP-C level change | 13.3 SD
CCc1c2c(nc3ccc(O)cc13)-c1cc3c(c(=O)n1C2)COC(=O)[C@]3(O)CC | NCI-H929 | cell proliferation |  | 72 h |  | IC50 | 2.93 nM
CC(C)C[C@H](NC(=O)[C@H](CC(=O)O)NC(=O)CNC(=O)[C@H](CCCNC(=N)N)NC(=O)[C@H](CC(C)C)NC(=O)[C@H](CC(N)=O)NC(=O)[C@@H]1CCCN1C(=O)[C@@H](NC(=O)[C@H](C)NC(=O)[C@H](CC(N)=O)NC(=O)CCOCCOCCOCCOCCOCCOCCOCCOCCOCCOCCOCCOCCOCCOCCOCCOCCOCCOCCOCCOCCOCCOCCOCCOCCOCCOCCOCCOCCNC(=O)CCOCCOCCOCCOCCOCCOCCOCCOCCOCCOCCOCCOCCOCCOCCOCCOCCOCCOCCOCCOCCOCCOCCOCCOCCOCCOCCOCCOCCNC(=O)c1ccc(F)cc1)C(C)C)C(=O)N[C@@H](CCC(N)=O)C(=O)N[C@H](C(=O)N[C@@H](CC(C)C)C(=O)N[C@@H](C)C(=O)N[C@@H](CCC(N)=O)C(=O)N[C@@H](CCCCN)C(=O)N[C@H](C(=O)N[C@@H](C)C(=O)N[C@@H](CCCNC(=N)N)C(=O)N[C@H](C(N)=O)[C@@H](C)O)C(C)C)C(C)C [fluorine-18 labelled] | DX3puroβ6 |  |  | concentration not given, 1 h, pH 7.2, serum-free medium |  | cell-bound radioactivity | 38.5 ± 1.7%
Nc1cccc2c1CN(C1CCC(=O)NC1=O)C2=O (stereo not drawn) | NCI-H929 | cell proliferation |  | 72 h |  | IC50 | 68 nM
NHTKKWKYPQVNGLT | human CD4 T cells | AIM | peptide |  |  | responding donors | 9%
CC[C@H](C)[C@H](NC(=O)[C@H](CC(C)C)NC(=O)[C@H](CO)NC(=O)[C@H](Cc1c[nH]cn1)NC(=O)[C@@H](NC(=O)[C@H](CC(C)C)NC(=O)[C@H](CO)NC(=O)[C@@H](NC(=O)[C@H](Cc1ccc(O)cc1)NC(=O)[C@H](CC(N)=O)NC(=O)[C@H](CC(N)=O)NC(=O)[C@@H](NC(=O)[C@H](CCC(=O)O)NC(=O)[C@H](CCCNC(=N)N)NC(=O)[C@H](CC(=O)O)NC(=O)[C@H](Cc1c[nH]c2ccccc12)NC(=O)[C@H](CCC(=O)O)NC(=O)[C@H](CCSC)NC(=O)[C@H](Cc1c[nH]c2ccccc12)NC(C)=O)[C@@H](C)CC)[C@@H](C)O)[C@@H](C)CC)C(=O)N[C@@H](CCC(=O)O)C(=O)N[C@@H](CCC(=O)O)C(=O)N[C@@H](CO)C(=O)N[C@@H](CCC(N)=O)C(=O)N[C@@H](CC(N)=O)C(=O)N[C@@H](CCC(N)=O)C(=O)N[C@@H](CCC(N)=O)C(=O)N[C@@H](CCC(=O)O)C(=O)N[C@@H](CCCCN)C(=O)N[C@@H](CC(N)=O)C(=O)N[C@@H](CCC(=O)O)C(=O)N[C@@H](CCC(N)=O)C(=O)N[C@@H](CCC(=O)O)C(=O)N[C@@H](CC(C)C)C(=O)N[C@@H](CC(C)C)C(=O)NCC(=O)N[C@@H](CO)C(=O)NCC(=O)N[C@@H](CSCC(=O)O[C@H]1CC[C@@]2(C)C(=CC[C@H]3[C@@H]4CC[C@H]([C@H](C)CCCC(C)(C)O)[C@@]4(C)CC[C@@H]32)C1)C(N)=O | human PBMCs | membrane binding, di-8-ANEPPS dipole potential |  |  |  | Kd | 250 ± 20 nM
CN(C)CC[C@H](CSc1ccccc1)Nc1ccc(S(=O)(=O)NC(=O)c2ccc(N3CCN(Cc4ccccc4-c4ccc(Cl)cc4)CC3)cc2)cc1[N+](=O)[O-] | HMEC |  |  | 5 µM, pre-treatment, together with: staurosporine |  | anti-apoptotic effect | no effect
COc1cc(O)c(CC=C(C)C)c2c1C(=O)CC(c1ccc(O)cc1)O2 (stereo not drawn) | Spike glycoprotein | binding, BLI |  |  |  | Kd | 10600 nM
RAMPNMLRIMASLVL | human CD4 T cells | AIM | peptide |  |  | responding donors | 7%
COc1cc2cc(c1Cl)N(C)C(=O)C[C@H](OC(=O)[C@H](C)N(C)C(=O)CCS)[C@]1(C)O[C@H]1[C@H](C)[C@@H]1C[C@@](O)(NC(=O)O1)[C@H](OC)/C=C/C=C(\C)C2 | NCI-H929 | cell proliferation |  | 72 h |  | IC50 | 0.842 nM
PLIELCVDEAGSKSP | human CD4 T cells | AIM | peptide |  |  | responding donors | 18%
CCOP(=S)(OCC)Oc1nc(Cl)c(Cl)cc1Cl | ES-D3 | cardiomyocyte differentiation, embryonic stem cell test |  | day 10, exposure from day 3 | 50% inhibition of beating | ID50 | 117000 nM
LQPELDSFKEELDKY | human CD4 T cells | AIM | peptide |  |  | responding donors | 7%
CNC(=O)[C@@H](NC(=O)[C@H](CC(C)C)[C@H](O)C(=O)NO)C(C)(C)C | Daboia russelii venom proteases (SVMP) | protease activity, inhibitor | KL population | 0.001 µM, together with: azocasein substrate | reference: venom alone | remaining activity | 100%

Repeated from above:
Molecule | target or system | assay | test system | setting | how to read | endpoint | result
COC(=O)Nc1nc2ccc(C(=O)c3cccs3)cc2[nH]1 | HEK293T | reporter gene, firefly luciferase |  | 24 h, together with: Marburg VP24 |  | IC50 | < 5000 nM
C[C@@H]1O[C@@H](O[C@H]2CC[C@]3(C=O)[C@H]4CC[C@]5(C)[C@@H](C6=CC(=O)OC6)CC[C@]5(O)[C@@H]4CC[C@]3(O)C2)[C@H](O)[C@H](O)[C@H]1O | human iPSC cardiomyocytes | plate-normalised |  | concentration not given, hit retest | reference: vehicle controls, SDs below control | MyBP-C level change | 13.3 SD
CCc1c2c(nc3ccc(O)cc13)-c1cc3c(c(=O)n1C2)COC(=O)[C@]3(O)CC | NCI-H929 | cell proliferation |  | 72 h |  | IC50 | 2.93 nM
CC(C)C[C@H](NC(=O)[C@H](CC(=O)O)NC(=O)CNC(=O)[C@H](CCCNC(=N)N)NC(=O)[C@H](CC(C)C)NC(=O)[C@H](CC(N)=O)NC(=O)[C@@H]1CCCN1C(=O)[C@@H](NC(=O)[C@H](C)NC(=O)[C@H](CC(N)=O)NC(=O)CCOCCOCCOCCOCCOCCOCCOCCOCCOCCOCCOCCOCCOCCOCCOCCOCCOCCOCCOCCOCCOCCOCCOCCOCCOCCOCCOCCOCCNC(=O)CCOCCOCCOCCOCCOCCOCCOCCOCCOCCOCCOCCOCCOCCOCCOCCOCCOCCOCCOCCOCCOCCOCCOCCOCCOCCOCCOCCOCCNC(=O)c1ccc(F)cc1)C(C)C)C(=O)N[C@@H](CCC(N)=O)C(=O)N[C@H](C(=O)N[C@@H](CC(C)C)C(=O)N[C@@H](C)C(=O)N[C@@H](CCC(N)=O)C(=O)N[C@@H](CCCCN)C(=O)N[C@H](C(=O)N[C@@H](C)C(=O)N[C@@H](CCCNC(=N)N)C(=O)N[C@H](C(N)=O)[C@@H](C)O)C(C)C)C(C)C [fluorine-18 labelled] | DX3puroβ6 |  |  | concentration not given, 1 h, pH 7.2, serum-free medium |  | cell-bound radioactivity | 38.5 ± 1.7%
Nc1cccc2c1CN(C1CCC(=O)NC1=O)C2=O (stereo not drawn) | NCI-H929 | cell proliferation |  | 72 h |  | IC50 | 68 nM
